Literature values, collected from citations in different studies.
Each line is one published result; not all experiments were run side by side. ± marks the error that the study gave. Converted amounts (≈) assume the structure as drawn.

SMILES | test | system | conditions | how to read | measurement | value
O=C(O)CN1CCNCCNCCN(CC(=O)O)CC1 | – | 0.1 M KCl | – | – | sum of log protonation constants | 26.4
COc1cc(F)c(C(C)C)cc1C1=C(CN2C(=O)O[C@H](c3cc(C(F)(F)F)cc(C(F)(F)F)c3)[C@@H]2C)CC(C)(C)CC1 | – | rat | intravenous | – | Vd | 0.99 to 1.11 L/kg
CC1=C(C2=C(C)C(=O)c3c(cc(O)c(O)c3C(C)C)C2=O)C(=O)c2cc(O)c(O)c(C(C)C)c2C1=O (racemic) | – | rat liver microsomes | 40 min | – | degradation | 53%
Cc1cc(C#N)cc(C)c1Oc1nc(NC2CCN(Cc3ccc(S(N)(=O)=O)cc3)CC2)nc2ccsc12 | – | – | pH 7.0 | – | solubility | 0.05 µg/mL (≈ 0.0911 µM)
O=C(O)CCC(=O)N([O-])CCCCCNC(=O)CCC(=O)N([O-])CCCCCNC(=O)CCC(=O)N([O-])CCCCCO.[Fe+3] | measured: Fe | – | – | – | log stability constant | 27.8 ± 0.3
CC#N.O=S(=O)([O-])C(F)(F)F.O=S(=O)([O-])C(F)(F)F.Oc1ccc(O)c(CN(CCN(Cc2ccccn2)Cc2ccccn2)Cc2ccccn2)c1.[Mn+2] | – | – | concentration not given | – | reduction potential Mn(III)/Mn(II) | 645 mV vs Ag/AgCl
C=C[C@@H]1C[C@]1(NC(=O)[C@@H]1C[C@@H](Oc2cc(-c3ccccc3)nc3cc(OC)ccc23)CN1C(=O)[C@@H](NC(=O)OC(C)(C)C)C(C)(C)C)C(=O)NS(=O)(=O)C1CC1 | – | rat, liver | dose not given, 8 h post-dose | – | tissue concentration | 0.6 µM
Cc1cc(N)nc(CC2CNCC2OCCNCC(F)(F)c2cccc(F)c2)c1 (racemic) | – | – | amine next to CF2 group | – | pKa | ~5.5
C=CC1CC1(NC(=O)C1CC(Oc2nccc3cc(OC)ccc23)CN1C(=O)C(NC(=O)OC(C)(C)C)C(C)(C)C)C(=O)O (stereo not shown) | – | isolated perfused rabbit heart | 10 µM, time not given | – | sinus node recovery time change | 37%
CN1CCN(c2cc(-c3ccccc3CO)c(N(C)C(=O)C(C)(C)c3cc(C(F)(F)F)cc(C(F)(F)F)c3)cn2)CC1 | – | healthy volunteers, plasma | oral, dose not given, netupitant-palonosetron, fed | – | Cmax | 73.1 ng/mL
O=S(=O)(O)CCN(CCS(=O)(=O)O)c1ccccc1 | – | water | 10 µM | – | pKa | 3.1
Cc1ccccc1-c1cc(N2CC[N+](C)([O-])CC2)ncc1NC(=O)C(C)(C)c1cc(C(F)(F)F)cc(C(F)(F)F)c1 | – | urine | oral, concentration not given, dosed as palonosetron | baseline: dose | urinary excretion | 17.2%
CCOc1ccc(Cc2cc(C3OC(SC)C(O)C(O)C3OC3OC(C(=O)O)C(O)C(O)C3O)ccc2Cl)cc1 (stereo not shown) | – | human, plasma | dose not given, major metabolite of sotagliflozin | – | share of total plasma radioactivity | 94%
COc1ccn2c(Nc3cc(F)cc(F)c3)c(-c3ccccn3)nc2c1 | – | mouse liver microsomes | – | – | CLint | 62 µL/min/mg protein
C=C[C@@H]1C[C@]1(NC(=O)[C@@H]1C[C@@H](Oc2ncc(OC)c3ccccc23)CN1C(=O)[C@@H](NC(=O)OC(C)(C)C)C(C)(C)C)C(=O)NS(=O)(=O)C1CC1 | – | rat | oral, 15 mg/kg | – | oral bioavailability | 20%
COc1cc(-c2cncc(-c3ccc(C4CCN(C)CC4)cc3)c2C)cc(OC)c1OC | – | SCID mouse female | oral, 10 mg/kg, 4 h | – | brain/plasma ratio | 0.82

SMILES | test | system | conditions | how to read | measurement | value
F[P-](F)(F)(F)(F)F.O=C(CCC(=O)[c-]1cccc1)NCCN(CC(=O)Nc1ccc(C#CCN(Cc2ccccn2)Cc2ccccn2)cc1)C(=O)CCc1cn(C[c-]2cccc2)nn1.[C-]#[O+].[C-]#[O+].[C-]#[O+].[C-]#[O+].[C-]#[O+].[C-]#[O+].[Mn+].[Re+].[Ru+2].c1cc[cH-]c1 | – | water | – | – | solubility | ~25 µg/mL
Cc1ccccc1-c1cc(N2CCNCC2)ncc1N(C)C(=O)C(C)(C)c1cc(C(F)(F)F)cc(C(F)(F)F)c1 | – | systemic circulation | – | baseline: metabolite over netupitant | exposure ratio | 29%
O=C(Nc1ccc(Br)cc1)Nc1ccc2nc(-c3ccco3)c(-c3ccco3)nc2c1 | – | mouse | oral | – | oral bioavailability | ~5%
CCN(CC)c1ccc(-c2cc3c(s2)c(C(=O)OC)cc(=O)n3C)cc1 | – | dichloromethane | 10 µM | – | emission maximum | 562 nm
Nc1ncnc2c1ncn2[C@H]1C[C@H](O)[C@@H](COP(=O)(O)OP(=O)(O)[C@H](F)P(=O)(O)O)O1 | measured: bisphosphonate leaving group | aqueous solution | measured experimentally | – | pKa4 | 9
O=C1C2=C(CCN(Cc3ccccc3)C2)N2CCN=C2N1Cc1ccc(C(F)(F)F)cc1 | – | rats | oral, 50 mg/kg | – | half-life | 4.31 h
CC(C)C[C@H](NC(=O)[C@H](CO)NC(=O)[C@H](CCCNC(=N)N)NC(=O)[C@H](CC(=O)O)NC(=O)[C@H](CCC(=O)O)NC(=O)[C@H](C)NC(=O)[C@@H]1CCCN1C(=O)[C@H](C)NC(=O)[C@H](CCC(=O)O)NC(=O)[C@@H]1CCCN1C(=O)[C@@H]1CCCN1)C(N)=O | – | saline 0.9 % | pH 7.2-7.4 | – | stability | stable
CNCCCOc1cc(F)c(-c2c(Cl)nc3ncnn3c2N[C@@H](C)C(F)(F)F)c(F)c1 | – | water | – | – | solubility | 890 µg/mL (≈ 1910 µM)
CCN(CC)C(=S)c1ccc(-c2c3ccc(=[N+](C)C)cc-3sc3cc4c(cc23)C(C)(C)CCN4C)s1 | – | n-octanol/water | – | – | logP | 2.7
Cc1ccccc1-c1cc(N2CC[N+](C)([O-])CC2)ncc1N(C)C(=O)C(C)(C)c1cc(C(F)(F)F)cc(C(F)(F)F)c1 | – | healthy volunteers, plasma | oral, 450 mg, single dose, together with: palonosetron 0.75 mg | – | half-life | 68.6 h
N=S(=O)(c1ccccc1)N1CCCCC1 (stereo not shown) | – | PBS | 24 h, pH 7 | – | recovery | 100%
COc1cc2c(NC3CCN(C)CC3)nc(N3CCCN(C)CC3)nc2cc1OCc1ccccc1 | – | rat liver microsomes | – | – | intrinsic clearance | 62 µL/min/mg protein
CCCCCCC[C@@H](CC(=O)O)OC(=O)C[C@@H](CCCCCCC)O[C@@H]1O[C@@H](C)[C@H](O)[C@@H](O)[C@H]1O | – | – | pH 8 | – | CMC | 79 ± 3 µM
COCCOCCOCCOCCC(=O)NCc1cc(CNC(=O)CCOCCOCCOCCOC)cc(-c2cc3cc4nc(c(OC)c5[nH]c(cc6nc(cc2[nH]3)CC6(C)C)cc5-c2cc(CNC(=O)CCOCCOCCOCCOC)cc(CNC(=O)CCOCCOCCOCCOC)c2)CC4(C)C)c1 | – | PBS | room temperature | – | kic^−1 | 6 ns
CCCCCCc1ccc(Oc2ccccc2C#N)c(O)c1 | – | mouse | 40 mg/kg | – | volume of distribution | 96 L/kg
